Measured values from different studies.
Protocols differ between the studies behind these lines. ± marks the error that the study gave.

O=C(/C=C/c1ccc(O)c(O)c1)OCCCC[P+](c1ccccc1)(c1ccccc1)c1ccccc1
H2O2 level (DCFDA fluorescence; energized rat liver mitochondria; concentration not given): decreased

CCCC[C@H](NC(=O)[C@@H](NC(=O)[C@H](CC(=O)O)NC(=O)[C@H](CCC(N)=O)NC(=O)[C@H](CC(C)C)NC(=O)[C@H](CC(C)C)NC(=O)[C@H](CCCN)NC(=O)[C@H](CCCNC(=N)N)NC(=O)[C@H](C)NC(=O)[C@H](CO)NC(=O)[C@H](CC(C)C)NC(=O)[C@H](CCC(N)=O)NC(=O)[C@H](CC)NC(=O)[C@H](CC(C)C)NC(=O)[C@@H](NC(=O)[C@H](CCCN)NC(=O)[C@H](CCCNC(=N)N)NC(=O)[C@H](Cc1ccc(O)cc1)NC(=O)[C@H](CO)NC(=O)[C@H](CCC(N)=O)NC(=O)[C@@H](NC(=O)[C@H](Cc1c(F)c(F)c(F)c(F)c1F)NC(=O)[C@@H](NC(=O)[C@H](C)NC(=O)[C@H](CC(=O)O)NC(=O)[C@@H](C)NC(=O)[C@H](Cc1ccc(O)cc1)NC)[C@@H](C)CC)[C@@H](C)O)C(C)C)[C@@H](C)CC)C(=O)N[C@@H](CC(=O)O)C(=O)N[C@@H](CCCNC(=N)N)C(=O)NC
relative potency (GH release; rat, male, serum; subcutaneous, 3 µg/kg, 15 min; relative to: reference GHRH agonist JI-38): 1.54

O=C1CC(c2ccc(O)cc2)Oc2cc3oc4cc(O)c(O)cc4c3c(O)c21 (racemic)
EC50 (ABTS scavenging, absorbance): 1110 µM

COc1cc(Cn2ccc3cc(C(=O)NCC45CC6CC(CC(C6)C4)C5)ccc32)ccc1C(=O)NO
amyloid plaque area (immunohistochemistry; 5xFAD mice, brain; intraperitoneal, 10 mg/kg daily, 2 months; relative to: vehicle): decreased

CCCC[C@H](NC(=O)[C@@H](NC(=O)[C@H](CC(=O)O)NC(=O)[C@H](CCC(N)=O)NC(=O)[C@H](CC(C)C)NC(=O)[C@H](CC(C)C)NC(=O)[C@H](CCCN)NC(=O)[C@H](CCCNC(=N)N)NC(=O)[C@H](C)NC(=O)[C@H](CO)NC(=O)[C@H](CC(C)C)NC(=O)[C@H](CCC(N)=O)NC(=O)[C@H](CC)NC(=O)[C@H](CC(C)C)NC(=O)[C@@H](NC(=O)[C@H](CCCN)NC(=O)[C@H](CCCNC(=N)N)NC(=O)[C@H](Cc1ccc(O)cc1)NC(=O)[C@H](CO)NC(=O)[C@H](CC(N)=O)NC(=O)[C@@H](NC(=O)[C@H](Cc1ccccc1)NC(=O)[C@@H](NC(=O)[C@H](C)NC(=O)[C@H](CC(=O)O)NC(=O)[C@@H](C)NC(=O)[C@H](Cc1ccc(O)cc1)NC)[C@@H](C)CC)[C@@H](C)O)C(C)C)[C@@H](C)CC)C(=O)N[C@@H](CC(=O)O)C(=O)N[C@@H](CCCNC(=N)N)C(=O)NCC
relative potency (GH release; male rat, serum; subcutaneous, dose not given, 30 min; relative to: GHRH(1-29)NH2): 125

CCCCCCCCCCCCCCCC(=O)N[C@@H](CCC(=O)NCCCC[C@H](NC(=O)[C@H](CC(=O)O)NC(=O)[C@H](CO)NC(=O)[C@@H](NC(=O)[C@H](Cc1ccccc1)NC(=O)[C@@H](NC(=O)CNC(=O)[C@H](CCC(N)=O)NC(=O)[C@H](CO)NC(=O)[C@@H](N)Cc1c[nH]cn1)[C@@H](C)O)[C@@H](C)O)C(=O)N[C@@H](CO)C(=O)N[C@@H](CCC(=O)O)C(=O)N[C@@H](Cc1ccc(O)cc1)C(=O)N[C@@H](CC(C)C)C(=O)N[C@@H](CC(=O)O)C(=O)N[C@@H](CO)C(=O)N[C@@H](CCC(=O)O)C(=O)N[C@@H](CCCNC(=N)N)C(=O)N[C@@H](C)C(=O)N[C@@H](CCCNC(=N)N)C(=O)N[C@@H](CC(=O)O)C(=O)N[C@@H](Cc1ccccc1)C(=O)N[C@H](C(=O)N[C@@H](C)C(=O)N[C@@H](Cc1c[nH]c2ccccc12)C(=O)N[C@@H](CC(C)C)C(=O)N[C@@H](CCC(=O)O)C(=O)N[C@@H](C)C(=O)NCC(=O)NCC(=O)O)C(C)C)C(=O)O
body weight loss (diet-induced obese mouse; subcutaneous, 10 nmol/kg daily, 4 weeks; relative to: starting body weight): 21%

COc1c2c(cc3oc(C)cc(=O)c13)O[C@H](C(C)(C)O[C@@H]1O[C@H](CO)[C@@H](O)[C@H](O)[C@H]1O)C2
hot plate latency (analgesia; mouse; oral, 4 mg/kg, 0.5 h): 10.7 ± 1.51 s

COc1cc2c(cc1OC)-c1cc3ccc(OC)c(OC)c3c[n+]1CC2
ALP activity (rat, STZ-induced diabetic, serum; oral, 12 mg/kg, day 28): 152 ± 4.15 U/L

CCCCC1NC(=O)c2ccccc21 (racemic)
black tail length (thrombosis; mouse, carrageenan-induced thrombosis; oral, 20 mg/kg daily for 2 days, 24 h after carrageenan): 3.5 ± 1.1 cm

CC12N3Cc4c(c(OCCCS(=O)(=O)[O-])c5ccccc5c4OCCCS(=O)(=O)[O-])CN1C(=O)N1Cc4c(c(OCCCS(=O)(=O)[O-])c5ccccc5c4OCCCS(=O)(=O)[O-])CN(C3=O)C12C.[Na+].[Na+].[Na+].[Na+] (stereo not shown)
association constant (phase solubility; with: camptothecin): 22000 M⁻¹

Repeated from above:
CCCC[C@H](NC(=O)[C@@H](NC(=O)[C@H](CC(=O)O)NC(=O)[C@H](CCC(N)=O)NC(=O)[C@H](CC(C)C)NC(=O)[C@H](CC(C)C)NC(=O)[C@H](CCCN)NC(=O)[C@H](CCCNC(=N)N)NC(=O)[C@H](C)NC(=O)[C@H](CO)NC(=O)[C@H](CC(C)C)NC(=O)[C@H](CCC(N)=O)NC(=O)[C@H](CC)NC(=O)[C@H](CC(C)C)NC(=O)[C@@H](NC(=O)[C@H](CCCN)NC(=O)[C@H](CCCNC(=N)N)NC(=O)[C@H](Cc1ccc(O)cc1)NC(=O)[C@H](CO)NC(=O)[C@H](CC(N)=O)NC(=O)[C@@H](NC(=O)[C@H](Cc1ccccc1)NC(=O)[C@@H](NC(=O)[C@H](C)NC(=O)[C@H](CC(=O)O)NC(=O)[C@@H](C)NC(=O)[C@H](Cc1ccc(O)cc1)NC)[C@@H](C)CC)[C@@H](C)O)C(C)C)[C@@H](C)CC)C(=O)N[C@@H](CC(=O)O)C(=O)N[C@@H](CCCNC(=N)N)C(=O)NCC
relative potency (GH release; male rat, serum; subcutaneous, dose not given, 30 min; relative to: GHRH(1-29)NH2): 125
